Measured values from different studies.
A part holds a random share of what one study measured.

Sample 1
Target: Interferon regulatory factor 7, full length, phosphomimetic (IRF7, Homo sapiens, UniProt Q92985, residues 1-503, S101K/S471D/S472D/S475D/S476D/S477D/S483D/S484D/S487D)
UniProt Q92985, sequence (whole entry, unmodified, looked up): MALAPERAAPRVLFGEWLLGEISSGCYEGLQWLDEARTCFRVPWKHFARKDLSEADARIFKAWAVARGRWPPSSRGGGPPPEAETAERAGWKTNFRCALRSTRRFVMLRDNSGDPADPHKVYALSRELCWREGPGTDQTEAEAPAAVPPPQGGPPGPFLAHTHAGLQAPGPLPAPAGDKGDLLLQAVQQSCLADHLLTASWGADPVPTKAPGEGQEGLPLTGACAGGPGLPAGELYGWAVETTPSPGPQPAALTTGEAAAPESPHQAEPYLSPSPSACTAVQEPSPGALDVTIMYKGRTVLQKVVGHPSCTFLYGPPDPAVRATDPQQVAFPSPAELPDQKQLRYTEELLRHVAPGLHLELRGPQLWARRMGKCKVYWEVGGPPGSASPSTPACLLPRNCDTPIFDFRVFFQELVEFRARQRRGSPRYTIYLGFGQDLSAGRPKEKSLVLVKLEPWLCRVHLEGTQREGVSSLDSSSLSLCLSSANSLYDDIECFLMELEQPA
Method: protein-binding microarray
Form: double-stranded DNA, one strand shown
Matrix: in vitro
Tested at: 250 nM
Notes: 60-bp whole probe
Together with: salmon DNA 0.4 mg/ml
Relative to: random background probes
Reading: higher = stronger binding
Measurement: log fluorescence
All sequences stand within: GCCTAGCAC … GTCTTGATTCGCTTGACGCTGCTG
TTATGACTGGACACTGGGTTAGTGCTA: 0.00294 z-score
GACGCACTGGGTCTCGGGACGTGCTAG: -0.0753 z-score
TTAGGTTTCGGTCTCGGGTAGTGCTAG: 7.67 z-score
GACGAACTGCTTATCCTGACGTGCTAG: -0.339 z-score
TTAGGTTCCGACACTGGGTTAGTGCTA: 0.132 z-score
TGGGTTGTAGGTTTTCTGAAGGTGCTA: -0.404 z-score
TTAGGTCTCGGTATCCGTTAGTGCTAG: 2.9 z-score
TTAGGTATCGACACTCGGTTAGTGCTA: 0.212 z-score
TCAACTTTCCCCTTCCTACTGTGCTAG: 1.57 z-score
TTAGATTTCACTATCGATTAGTGCTAG: 1.04 z-score
TCATCTTTCCCTGCCCCATGGTGCTAG: 1.54 z-score
TGCCATATTTATCTGCAAAGGTGCTAG: 0.512 z-score
CAGTTTTCCTCTGTCATTTTGTGCTAG: 2.61 z-score
TCACTTCACCTCTCTGTCACTGTGCTA: 0.477 z-score
TTAGGTTGCGGGTATCGGTTAGTGCTA: 0.437 z-score
TTAGGTTTCGGTCTGGGTTAGTGCTAG: 7.83 z-score
TTAGAACTGGCGACTGGATTAGTGCTA: -0.495 z-score
TTAGGTATCGACTTGCGGTTAGTGCTA: 2.07 z-score
TCATTACCGCATATCGGACTGTGCTAG: 0.8 z-score
TTTTTTTTTTACTTCGGGTGGTGCTAG: 0.677 z-score
TTAGGATTCGACTTTCGGTTAGTGCTA: 4.89 z-score
GACGCTATCAGTATCGAGACGTGCTAG: 0.0289 z-score

Sample 2
Target: Phosphate system positive regulatory protein PHO4, full length, GST-tagged (PHO4, Saccharomyces cerevisiae, UniProt P07270, residues 1-312)
Method: competition protein-binding microarray
Form: double-stranded DNA, one strand shown
Matrix: in vitro
Tested at: 2 µM
Notes: whole 60-bp probe, lowest competitor level
Together with: Cbf1 competitor, 0.05 µM
Reading: higher = stronger binding
Measurement: fluorescence intensity
All sequences stand within: … GTCTTGATTCGCTTGACGCTGCTG
Construct (chain): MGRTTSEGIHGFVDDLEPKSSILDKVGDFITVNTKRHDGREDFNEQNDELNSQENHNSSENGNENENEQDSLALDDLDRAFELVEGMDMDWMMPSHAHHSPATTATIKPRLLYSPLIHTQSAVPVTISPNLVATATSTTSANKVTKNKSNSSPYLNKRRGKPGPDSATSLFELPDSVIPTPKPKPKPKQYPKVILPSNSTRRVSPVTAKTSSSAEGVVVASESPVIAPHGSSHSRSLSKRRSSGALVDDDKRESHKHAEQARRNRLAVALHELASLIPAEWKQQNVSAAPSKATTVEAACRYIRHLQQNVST
ATCTTGGGGATTACCCACGTGCTGTAACAAACGGTT: 20600 a.u.
AAATTACTAAGTTTTCACGTGCCCTACCCCGTATGA: 15900 a.u.
TGCGCAACAACTTGAAGTGTGGGTGTATGTCTAGAA: 5990 a.u.
TTACCATGCCAATCAAACGTGCAAAAAAGATGAGTA: 9670 a.u.
CCTATTATTGTTTGTCACGATGTCTTGGCTCAAGCT: 9220 a.u.
TAATACTATCTCCAACACGTGAATTAGCAAGCCAAA: 14900 a.u.
GCTTGTTTTCTCCGTCACGGGTTTAGACCTTGGTGG: 7990 a.u.
CATACCCAACCTTGTCACAAAACTTAAGATATTTGT: 3200 a.u.
TACAAGGTTATCCTGATCGTGCGGACAAGAAGATCA: 6570 a.u.
CTGTTGGATATGCTTGTCGTGATGGAATACTGTTCT: 5320 a.u.
GGCCGCTCAAGGGAGCACGTGACCTCGGCCTCTGGC: 15200 a.u.
CGTCCTAGCGATTGACAGGTGGGTGCCATGAGGAAG: 8010 a.u.
TCATGAGATTGGATGATCGTGCCGATAGACTAGCAG: 7230 a.u.
CATACCCAACCTTGACCTGTGGGTGAAGATATTTGT: 4340 a.u.
GGCTTGGATCTCAAAAGCGTGGGTAGCGTCGGCGCG: 7390 a.u.
CAACACAAAGTTCGTCACGTCATTTAGCTGATAACG: 4380 a.u.
CATTTCTGGGAGCTGCATGTGGGTGACGCAGCAGCA: 10600 a.u.

Sample 3
Target: RNA binding protein fox-1 homolog 2, RRM domain, GST-SBP tag (RBFOX2, Homo sapiens, UniProt O43251-10, residues 100-194)
Method: RNA Bind-n-Seq
Form: RNA
Matrix: in vitro
Tested at: 365 nM
Notes: natural RNA segment, single round, ends assumed
Relative to: no-protein control
Reading: higher = stronger binding
Measurement: RBNS enrichment (R)
All sequences stand within: GGGAGUUCUACAGUCCGACGAUC … UGGAAUUCUCGGGUGCCAA
Target sequence (chain): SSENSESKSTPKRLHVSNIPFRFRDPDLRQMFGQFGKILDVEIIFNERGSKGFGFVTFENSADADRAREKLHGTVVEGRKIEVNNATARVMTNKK
CCCAUUUGCCCCUGUCCAGACUGUUUCUUUUGGCUUAGACCAUAAUCCUCUGCUGCCCGGGGCAUUGGAGCCCCUGUGCUAGGAAGCUGUCAGUUUUGAGUAUCAUUGGC: 0.4
UAAUGAACAUGAGCAGAAGCCUAAGUUGGGACAGCUCAGAACCAAGCAAGAGGGGGCCGUUUUAAUGAAUUAGAUUGAAAAAUAGGCCUAAGCCGUUUGUACCUUAGUUU: 0.669
GCAAGAGUUUAACAUCUUCGGCCCUGCAUUCCUACAUCUUGUGUCUGUACACGUUCUUAAGCAGCGUGUCAGGAGAGCACCCUGUUGUCUUCUGGUAAAUGUGUGCAGGG: 0.467
UCUGAUGAAUGAUUAUGGUCUAUACAUAAAAAAGUAAGACUAAGUAUUGCUGAAUUUGCAGUUAUGUUGUCGUGUAUAAGAGCUACUUCCAAGUGUGGUUACAAAUGAAC: 1.25
GACUGUGGAACCGUUUUUAUGGAUUUUGCCCCUGCUUGCUUUCAUCCUGUAACCUAGCCUGUAUUAUACAAGAAAACUUGAGCAGGACAUUUCAAGAGAAUAUGUUGGCC: 3.58
CCUUCUGUCUAGGUUCACUUGGUUUGUCAUCAGGAACUGAGCAGGUCCAGGACUCAGCUUUCUGCUUCAGCCUAAGCCAGUACUCCUUGUUUGAGGUAAAAGCCUUAAAA: 0.27
CCUUUGCAUGUGAGUAUUAUGUACUACAGUAAGGAAUGGAUGGCUCCUAACUAGCAUGCAACCCUUGGCUUGUUUACUAACCCAAAAGGGCUAAGGCACAGUAUUUGAAA: 38.9
GGAUUGCACAUUUUCUCUAUGAUGUUUGCAACAGAGAAAUUUUCAUUUUAAUGAUACUCUUCCUUUCUUGAAAGUUACAUGUCCUCAUUUCUGUUUCUGCUUCUCCCUUG: 0.881
GAUUUUUUUCAUGUUUGUUUUAUCUGGGGGUUGUUCAUGAAACUGACAGAUGUUUUUCUAAAAAGGACUAUUAUCAGUUUCCAAAUACAAUACUUCUCUCUUCUGGUUUU: 0.614
ACGCUUAAUUUUAAUUGGGAGAAAGUGAGUGCUUAUUGUAAUGGAGUUAAUUUUAUUGAUAAUAAAUUAUACACCAUGAAACUGCUCUUGGGCUACUGUAGAUUUGUAUC: 0.436
CUUUUAUAUAUUAAAAAACGUAUCAUGCACCAACUGUGAAUAGCUGCCGCUUGCGCAGAGGACCCGGGGAGGGGUCCCGAGAGGCUCCCCAUGCAACACUGGAAAUGACU: 2.26
UUGGAGAACUGCACUAAACCCACUAAACAGAUGCAAAAACCUGACCAGGCCCAACACCCACCCUGCCUGGCUCCUCUCCUCAUCCAGACUAACUCUACUGUGAAGUCCCA: 0.428

Sample 4
Target: Histone acetyltransferase KAT6A, winged helix 1, GST fusion (KAT6A, Homo sapiens, UniProt Q92794, residues 1-85)
Method: protein binding microarray
Form: double-stranded DNA, one strand shown
Matrix: in vitro
Tested at: not given
Notes: 8-mer, flanks averaged, mean of 2 arrays, mostly near background
Relative to: not given
Reading: higher = stronger binding
Measurement: E-score
Residues (chain): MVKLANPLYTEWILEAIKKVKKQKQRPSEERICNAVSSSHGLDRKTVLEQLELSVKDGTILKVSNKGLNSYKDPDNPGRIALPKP
CCGTAAAG: 0.278
CGGGTACA: 0.328
TAAAGTCA: -0.17
CCTAGGTC: -0.0486
GACGCGCC: 0.363
TAGCGGGA: 0.244
CGGCGCGC: 0.469
CGCACCTC: 0.135
AGCGAGAT: 0.101
GTCGCGAC: 0.165
ACCCTAAC: -0.204
CCTGATTC: -0.208
CTGCGCAA: 0.157
CCTCGCTC: 0.0811
AATTGGAA: -0.126
AATGATGA: -0.24
GCACCCGA: 0.189
CACAAACG: -0.0249
CTATCCAC: -0.0219
GCGGCGCA: 0.434
AATGAAGC: -0.108
GGTCTTAC: 0.0972
GAAAGGCA: 0.0476
ACACACAC: -0.187

A few entries again (sample 2):
ATCTTGGGGATTACCCACGTGCTGTAACAAACGGTT: 20600 a.u.
AAATTACTAAGTTTTCACGTGCCCTACCCCGTATGA: 15900 a.u.
TGCGCAACAACTTGAAGTGTGGGTGTATGTCTAGAA: 5990 a.u.
TTACCATGCCAATCAAACGTGCAAAAAAGATGAGTA: 9670 a.u.
CCTATTATTGTTTGTCACGATGTCTTGGCTCAAGCT: 9220 a.u.
TAATACTATCTCCAACACGTGAATTAGCAAGCCAAA: 14900 a.u.
GCTTGTTTTCTCCGTCACGGGTTTAGACCTTGGTGG: 7990 a.u.
CATACCCAACCTTGTCACAAAACTTAAGATATTTGT: 3200 a.u.
TACAAGGTTATCCTGATCGTGCGGACAAGAAGATCA: 6570 a.u.
CTGTTGGATATGCTTGTCGTGATGGAATACTGTTCT: 5320 a.u.
GGCCGCTCAAGGGAGCACGTGACCTCGGCCTCTGGC: 15200 a.u.
